Experimental data gathered from unrelated publications.
Protocols differ between the studies behind these lines. Several values in a cell are separate wells, animals, samples, runs or records. Numbers after ± are the reported error.
UniProt O95983, sequence (whole entry, looked up): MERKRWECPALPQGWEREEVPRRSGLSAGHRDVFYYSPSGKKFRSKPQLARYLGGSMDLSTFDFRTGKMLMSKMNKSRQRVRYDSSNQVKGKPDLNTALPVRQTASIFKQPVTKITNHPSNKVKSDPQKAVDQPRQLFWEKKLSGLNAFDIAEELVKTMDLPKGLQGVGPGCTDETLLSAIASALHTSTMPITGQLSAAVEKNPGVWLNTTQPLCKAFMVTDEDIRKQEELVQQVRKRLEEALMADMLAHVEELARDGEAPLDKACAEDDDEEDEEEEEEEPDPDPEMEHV

C[C@@H]1OC(=O)NN=C1c1ccc(-c2ccc(F)cc2)c(C(F)(F)F)c1  patients with adverse event (phase I trial, item: Cough all grades; human patients; 20 mg loading then 1 mg daily): 50%
CC(=O)N[C@H]1CC[C@H](NC(=O)CN2CCN(c3nncc(-c4ccc(C)cc4)n3)CC2)CC1  NOAEL (female monkeys): 100 mg/kg/day
O=C(C1CCSCC1)N1CC(=O)N2CCc3ccccc3[C@@H]2C1  AUC of (R)-enantiomer (NMRI mouse, female, S. mansoni-infected, plasma; oral, 200 mg/kg): 4.1 µM·h
O=S(=O)(Nc1ccccc1)c1ccc(NC(=S)Nc2ccccc2)cc1  serum enzyme activity (item: CK; male mouse, blood; oral, 5 mg/kg daily, 14 days): 2570 U/L
CN1CCN(S(=O)(=O)c2cc([N+](=O)[O-])ccc2N(CCOS(C)(=O)=O)CCOS(C)(=O)=O)CC1  AUC(0-t) (naive female NSG mice, plasma; intraperitoneal, 5 mg/kg): 0.49 µM·h
C=CC(=O)N1CC[C@H](n2nc(C#Cc3cc(OC)cc(OC)c3)c3c(N)ncnc32)C1  adverse drug reaction incidence (patients with advanced solid tumours; oral, dose not given, Malaise, any grade, QD, all patients): 11.6%
COc1ccc(-c2c(-c3ccc(C#N)c(F)c3)nc(N3CCC(N)CC3)n(C)c2=O)cc1F  serious adverse event incidence (item: Fatigue; human patients; oral, 60 mg, dose expansion): 5%
CC[C@H](C)[C@@H]([C@@H](CC(=O)N1CCC[C@H]1[C@H](OC)[C@@H](C)C(=O)N[C@@H](Cc1ccccc1)C(=O)O)OC)N(C)C(=O)[C@@H](NC(=O)[C@H](C(C)C)N(C)C)C(C)C  exposure relative to dose (item: conjugated compound-HPA; human patients, phase 1/2, plasma; dose not given, dosed as NaPi2b ADC): < 1.5%
COc1cccc(Oc2ccccc2NC(=O)CNC(=O)c2cccc3ccccc23)c1  blood glucose (esterase-deficient SCID mice, male; oral, 40 mg/kg/day, 14 days, toxicity study): 269 mg/dL and 200 mg/dL and 172 mg/dL
Cn1nccc1[C@]1(CNC(=O)c2ccc(F)c(F)c2-c2ccc(C(F)(F)F)cc2)NC(=O)NC1=O  dose-normalised AUC (mouse; intravenous, 0.3 mg/kg): 1.5 kg·h/L
Oc1ccc(Cl)c(-c2ccc(Cl)cc2Cl)c1Cl  enantiomeric fraction (enantioselective gas chromatography; racemized sample; column temperature 140 °C): 0.48
CC(=O)c1c(C)c2cnc(Nc3ccc(C4CCN(CCS(C)(=O)=O)CC4)cn3)nc2n(C2CCCC2)c1=O  Tmax (human patients, plasma; oral, 75 mg twice daily, day 21 multiple doses, with: fulvestrant): 1.75 h
CCc1ccc(CC/C=C/c2ccc3c(c2)C(=O)CC3)cc1  ALP serum activity (Sprague-Dawley rat, male; oral, 450 mg/kg/day, 14 days): 299 U/L
Cn1cncc1-c1c(F)cncc1NC(=O)c1c(N)nn2cc(F)cnc12  dose-limiting toxicity upper GI haemorrhage (human patients; oral, 80 mg once daily, 21 days): 0%
COc1ccc2nc3cc(Cl)ccc3c(Nc3cc(CN4CCCC4)c(O)c(CN4CCCC4)c3)c2n1  red cell distribution width (SD) (mouse, blood; oral, 57 mg/kg): 24.9 fL
S=c1oc(-c2ccccc2)nn1CN1CCN(Cc2ccccc2)CC1  serum ALP (Wistar rat female; oral, 100 mg/kg, acute toxicity OECD 423): 11 ± 1.02 KA/dL
CC[C@H](C)[C@H](NC(=O)[C@H](Cc1c[nH]cn1)NC(=O)[C@H](CO)NC(=O)CNC(=O)[C@H](CCC(=O)O)NC(=O)[C@H](CCSC)NC(=O)[C@@H](NC(=O)[C@H](Cc1c[nH]cn1)NC(=O)[C@H](CO)NC(=O)[C@H](CCSC)NC(=O)[C@H](C)NC(=O)[C@H](CC(N)=O)NC(C)=O)C(C)C)C(=O)N[C@@H](CC(N)=O)C(=O)N[C@@H](Cc1c[nH]c2ccccc12)C(=O)N[C@@H](CC(=O)O)C(=O)N[C@@H](C)C(N)=O  alpha-helix content (circular dichroism; water with 5% DMSO; 500 µM, 18 °C): 35%
C[C@]1(O)C[C@@](N)(c2ccc(-c3nc4n(c3-c3ccccc3)COc3ccncc3-4)cc2)C1  patients with Rash TEAE (human, advanced or metastatic solid tumours; intermittent, dose escalation total, any grade): 57.1%
COc1cc2c(Oc3ccc4[nH]c(C)cc4c3F)ccnc2cc1OCC1(N)CC1  grade 3 hand-foot syndrome (paediatric recurrent refractory sarcoma; 10 mg): 0%
COc1cc2c(OCCCC#N)c3c(c(-c4ccc5c(c4)OCO5)c2cc1OC)C(=O)OC3  CL/F (mouse; oral): 0.311 L/h
CNC(=O)c1cc(Oc2ccc(NC(=O)Nc3cc(C(C)(C)C)nn3-c3ccc4ncccc4c3)c(F)c2)ccn1  related SAE (pericardial effusion, NCI CTC v3.0; human patients; oral, all dose levels): 2%
C=CC(=O)Nc1cc(Nc2nccc(Nc3cc(Cl)c(F)cc3C(C)(C)O)n2)c(OC)cc1N1CC[C@@H](N(C)C)C1  patients with amylase increased (human patients; oral, 100 mg, treatment-emergent adverse events): 22.2%
[O-][S+]1CCc2nc(N3CCC(c4ncc(Cl)cn4)CC3)nc(NC3(CO)CCC3)c21 (stereo not drawn)  erythrocyte sedimentation rate (item: mean; idiopathic pulmonary fibrosis patients, blood; 18 mg twice daily, at last treatment): 29.1 mm/h
C[C@H](O)c1cnc(NS(=O)(=O)c2ccc(C(F)(F)F)c(Cl)c2)nc1  apparent intrinsic clearance (hepatocytes, HSD17B13 knockout with AAV control, C57BL/6J mouse, male; 1 µM): < 1.9 µL/min/10⁶ cells
N=C(N)NCCC[C@@H](NC(=O)[C@@H](N)Cc1ccccc1)C(=O)N[C@@H](Cc1ccccc1)C(=O)N[C@@H](CCCCN)C(N)=O  fraction of dose excreted unchanged (LC-MS; human, urine; subcutaneous, 5 mg, 5.833 h, median): 20.4%
Cn1cc(-c2nc(N[C@@H]3CCCC[C@@H]3N)c(F)c3c2C(=O)NC3)cn1  hemorrhagic adverse events (item: Rectal haemorrhage; patients with relapsed or refractory AML; oral, 140 mg once daily): 20%
C[C@]1(CO)Cc2ncn(-c3ccc(C#N)c(Cl)c3)c2C(=O)O1  subjects with drug-related TEAEs (investigator-assessed; human; 20 mg multiple doses, fasted): 11.1%
CC(C)C[C@H](NC(=O)[C@H](CCCCN)NC(=O)OCC1c2ccccc2-c2ccccc21)C(=O)N[C@H](C(=O)N[C@@H](Cc1ccccc1)C(=O)N[C@@H](Cc1ccccc1)C(=O)N[C@@H](CCCCN)C(=O)NCC(=O)N[C@@H](Cc1ccccc1)C(=O)N[C@@H](C)C(=O)N[C@@H](Cc1c[nH]c2ccccc12)C(=O)N[C@@H](CC(N)=O)C(=O)N[C@H](C(=O)N[C@H]1CSSC[C@@H](C(=O)N[C@@H](Cc2c[nH]cn2)C(=O)N[C@@H](CCCNC(=N)N)C(=O)N[C@@H](CCCNC(=N)N)C(=O)N[C@@H](C)C(=O)N[C@@H](CC(N)=O)C(N)=O)NC(=O)[C@H](C(C)C)NC(=O)[C@H](CCCNC(=N)N)NC(=O)[C@H](C(C)C)NC(=O)CNC(=O)[C@H](CC(N)=O)NC(=O)[C@H](CCCNC(=N)N)NC(=O)[C@H](Cc2ccc(O)cc2)NC(=O)[C@H](C(C)C)NC1=O)C(C)C)C(C)C  secondary structure content (circular dichroism, item: α-Helix; PBS; 80 µM, pH 7.4): 5.91%
C=C(CN(C(=O)c1c(C(F)F)nn(C)c1F)C1CC1)c1ccc(Cl)cc1Cl  mortality (static acute toxicity test; zebrafish (Brachydanio rerio); 0.833 mg a.i./L, 48 h): 0%
O=C1Nc2cc3[nH]nc(-c4ccncc4)c3cc2CN1Cc1ccccc1  patients with grade ≥3 TEAE (item: Lymphopenia; patients with advanced solid tumours; intravenous, dose not given, schedules 1 and 2): 6%
NCCCC[C@@H]1NC(=O)[C@@H](Cc2c[nH]c3ccccc23)NC(=O)[C@H](c2ccccc2)NC(=O)[C@@H]2C[C@@H](OC(=O)NCCN)CN2C(=O)[C@H](Cc2ccccc2)NC(=O)[C@H](Cc2ccc(OCc3ccccc3)cc2)NC1=O  QTcI change from baseline (healthy volunteers; subcutaneous, 600 µg twice daily, day 5, 8.00 h): -2.5 ms
CCC(C(=O)Nc1cc(NC2CCNCC2)ccc1C)n1cc(Cl)cc2nc(SCc3ccc(F)cc3)nc1-2 (stereo not drawn)  intrinsic clearance (mouse, liver microsomes): 105 mL/min/g protein
COc1ccnc(C(=O)N[C@H]2COC(=O)[C@H](Cc3ccccc3)[C@@H](OC(=O)C(C)C)[C@H](C)OC2=O)c1OCOC(=O)C(C)C  oral absorption (item: urine, rinse and air; mouse, male; oral): 12%
O=C(Nc1ccccc1)C1CCN(C(=O)Oc2cccnc2)CC1  subjects with pain in extremity (adverse event reporting; healthy women; oral, 60 mg, 7 days): 7.1%
CO[C@H]1C[C@@H]2CC[C@@H](C)[C@@](O)(O2)C(=O)C(=O)N2CCCC[C@H]2C(=O)O[C@H]([C@H](C)C[C@@H]2CC[C@@H](OC(=O)NCCOCCOCCOCCOCCOCCOCCOCCOCCC(=O)N3CCc4cc(Cn5nc(-c6ccc7oc(N)nc7c6)c6c(N)ncnc65)ccc4C3)[C@H](OC)C2)C[C@@H](O)[C@H](C)/C=C(\C)[C@@H](O)[C@@H](OC)C(=O)[C@H](C)C[C@H](C)/C=C/C=C/C=C/1C  TRAE incidence (phase 1 dose escalation, item: diarrhoea; advanced solid tumour patients; intravenous, 6 mg weekly, grade ≥3): 0%
CCCCCCCCCCCCCCCC(=O)N[C@@H](CCC(=O)NCCCC[C@H](NC(=O)[C@H](CC(=O)O)NC(=O)[C@H](CO)NC(=O)[C@@H](NC(=O)[C@H](Cc1ccccc1)NC(=O)[C@@H](NC(=O)CNC(=O)[C@H](CCC(N)=O)NC(=O)[C@H](CO)NC(=O)[C@@H](N)Cc1c[nH]cn1)[C@@H](C)O)[C@@H](C)O)C(=O)N[C@@H](CO)C(=O)N[C@@H](CCC(=O)O)C(=O)N[C@@H](Cc1ccc(O)cc1)C(=O)N[C@@H](CC(C)C)C(=O)N[C@@H](CC(=O)O)C(=O)N[C@@H](CO)C(=O)N[C@@H](CCC(=O)O)C(=O)N[C@@H](CCCNC(=N)N)C(=O)N[C@@H](C)C(=O)N[C@@H](CCCNC(=N)N)C(=O)N[C@@H](CC(=O)O)C(=O)N[C@@H](Cc1ccccc1)C(=O)N[C@H](C(=O)N[C@@H](C)C(=O)N[C@@H](Cc1c[nH]c2ccccc12)C(=O)N[C@@H](CC(C)C)C(=O)N[C@@H](CCC(=O)O)C(=O)N[C@@H](C)C(=O)NCC(=O)NCC(=O)O)C(C)C)C(=O)O  treatment-related adverse events (item: Diarrhoea; humans CrCl at least 90 mL/min; subcutaneous, 100 µg single dose): 0%
C[C@@H](NC(=O)N1C(=O)[C@H](Cc2ccnc(N)c2)[C@H]1C(=O)O)C1CCCCC1  incidence of moderate AEs (healthy adult Chinese volunteers; continuous intravenous infusion, 2.25 mg/kg/h, 5-day infusion, CTCAE 5.0 grading): 0%
COc1ncccc1-c1cnn2ccc(N3CCN(C(=O)OC(C)C)CC3)nc12  drug concentration (mouse nerve ligation model, plasma; oral, 30 mg/kg, 120 min after last dose, repeat dosing day 3): 7.4 µM
C[C@H]1CN(c2n[nH]c3nc(N[C@H]4CC[C@H](NS(=O)(=O)CCC(F)(F)F)CC4)ncc23)CCO1  IC50 (Methyl-CpG-binding domain protein 3 (MBD3, Homo sapiens, UniProt O95983); biochemical): ≥ 20 µM

Repeated from above:
CCC(C(=O)Nc1cc(NC2CCNCC2)ccc1C)n1cc(Cl)cc2nc(SCc3ccc(F)cc3)nc1-2 (stereo not drawn)  intrinsic clearance (mouse, liver microsomes): 105 mL/min/g protein
CC[C@H](C)[C@H](NC(=O)[C@H](Cc1c[nH]cn1)NC(=O)[C@H](CO)NC(=O)CNC(=O)[C@H](CCC(=O)O)NC(=O)[C@H](CCSC)NC(=O)[C@@H](NC(=O)[C@H](Cc1c[nH]cn1)NC(=O)[C@H](CO)NC(=O)[C@H](CCSC)NC(=O)[C@H](C)NC(=O)[C@H](CC(N)=O)NC(C)=O)C(C)C)C(=O)N[C@@H](CC(N)=O)C(=O)N[C@@H](Cc1c[nH]c2ccccc12)C(=O)N[C@@H](CC(=O)O)C(=O)N[C@@H](C)C(N)=O  alpha-helix content (circular dichroism; water with 5% DMSO; 500 µM, 18 °C): 35%
COc1cccc(Oc2ccccc2NC(=O)CNC(=O)c2cccc3ccccc23)c1  blood glucose (esterase-deficient SCID mice, male; oral, 40 mg/kg/day, 14 days, toxicity study): 269 mg/dL and 200 mg/dL and 172 mg/dL
